{"data": "Results pooled from the literature", "ADORA1": "Adenosine receptor A1 (ADORA1, Homo sapiens, UniProt P30542)", "RIPK1": "Receptor-interacting serine/threonine-protein kinase 1 (RIPK1, Homo sapiens, UniProt Q13546)", "note": "Each line is one published result; not all experiments were run side by side.", "sequence of UniProt Q13546 (whole entry, looked up)": "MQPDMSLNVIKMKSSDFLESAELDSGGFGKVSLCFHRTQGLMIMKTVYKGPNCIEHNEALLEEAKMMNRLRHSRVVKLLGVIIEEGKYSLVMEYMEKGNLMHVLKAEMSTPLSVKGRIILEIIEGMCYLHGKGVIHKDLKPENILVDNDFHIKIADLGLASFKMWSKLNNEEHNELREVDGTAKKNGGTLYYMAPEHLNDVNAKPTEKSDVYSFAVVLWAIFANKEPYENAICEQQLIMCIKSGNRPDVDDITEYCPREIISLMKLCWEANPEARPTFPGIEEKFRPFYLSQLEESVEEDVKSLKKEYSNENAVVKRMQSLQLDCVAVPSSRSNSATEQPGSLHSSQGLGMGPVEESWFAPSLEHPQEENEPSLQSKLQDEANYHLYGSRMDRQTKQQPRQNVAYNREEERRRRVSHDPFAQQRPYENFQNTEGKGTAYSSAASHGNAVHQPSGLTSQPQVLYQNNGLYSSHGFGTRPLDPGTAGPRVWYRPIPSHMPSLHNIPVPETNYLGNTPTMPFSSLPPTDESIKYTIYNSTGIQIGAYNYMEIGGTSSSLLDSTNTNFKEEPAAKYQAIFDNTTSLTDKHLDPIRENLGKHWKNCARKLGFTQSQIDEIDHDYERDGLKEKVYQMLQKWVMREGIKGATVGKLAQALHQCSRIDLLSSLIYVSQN", "sequence of UniProt P30542 (whole entry, looked up)": "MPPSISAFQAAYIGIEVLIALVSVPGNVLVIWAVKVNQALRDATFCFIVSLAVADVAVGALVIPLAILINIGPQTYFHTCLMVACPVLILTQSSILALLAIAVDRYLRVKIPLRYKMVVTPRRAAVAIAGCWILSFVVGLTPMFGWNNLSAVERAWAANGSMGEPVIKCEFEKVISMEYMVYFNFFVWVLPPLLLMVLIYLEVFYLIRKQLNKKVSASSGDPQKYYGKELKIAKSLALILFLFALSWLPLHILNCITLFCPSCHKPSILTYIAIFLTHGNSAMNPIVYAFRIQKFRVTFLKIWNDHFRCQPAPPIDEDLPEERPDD", "sequence of UniProt A0AVT1 (whole entry, looked up)": "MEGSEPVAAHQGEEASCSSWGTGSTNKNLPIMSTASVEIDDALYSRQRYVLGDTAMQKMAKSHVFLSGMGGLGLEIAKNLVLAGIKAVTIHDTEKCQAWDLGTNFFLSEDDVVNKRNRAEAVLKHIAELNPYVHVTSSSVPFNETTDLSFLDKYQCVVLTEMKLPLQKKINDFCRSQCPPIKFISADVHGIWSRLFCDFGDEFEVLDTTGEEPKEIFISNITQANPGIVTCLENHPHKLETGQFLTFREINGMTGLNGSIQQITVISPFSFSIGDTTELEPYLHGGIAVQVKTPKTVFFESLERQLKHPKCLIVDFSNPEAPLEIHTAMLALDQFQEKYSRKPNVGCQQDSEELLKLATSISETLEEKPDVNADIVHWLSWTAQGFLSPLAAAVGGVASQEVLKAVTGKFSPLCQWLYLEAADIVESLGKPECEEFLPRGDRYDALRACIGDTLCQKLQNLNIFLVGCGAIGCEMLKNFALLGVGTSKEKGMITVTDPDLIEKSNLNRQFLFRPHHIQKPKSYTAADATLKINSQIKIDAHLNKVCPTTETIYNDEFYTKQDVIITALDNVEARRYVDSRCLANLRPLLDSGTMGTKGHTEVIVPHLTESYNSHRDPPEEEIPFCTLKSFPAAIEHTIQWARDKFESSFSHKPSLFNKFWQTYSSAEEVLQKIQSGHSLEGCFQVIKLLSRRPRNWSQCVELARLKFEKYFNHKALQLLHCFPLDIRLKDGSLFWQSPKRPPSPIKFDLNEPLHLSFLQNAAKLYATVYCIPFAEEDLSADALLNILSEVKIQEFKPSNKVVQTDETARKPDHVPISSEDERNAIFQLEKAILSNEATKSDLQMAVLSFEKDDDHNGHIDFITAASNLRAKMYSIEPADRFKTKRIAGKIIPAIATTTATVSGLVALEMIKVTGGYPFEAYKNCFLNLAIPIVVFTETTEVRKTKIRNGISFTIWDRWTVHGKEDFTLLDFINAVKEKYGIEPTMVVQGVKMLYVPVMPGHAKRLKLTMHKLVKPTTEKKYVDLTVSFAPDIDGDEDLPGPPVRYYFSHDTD", "sequence of UniProt P08912 (whole entry, looked up)": "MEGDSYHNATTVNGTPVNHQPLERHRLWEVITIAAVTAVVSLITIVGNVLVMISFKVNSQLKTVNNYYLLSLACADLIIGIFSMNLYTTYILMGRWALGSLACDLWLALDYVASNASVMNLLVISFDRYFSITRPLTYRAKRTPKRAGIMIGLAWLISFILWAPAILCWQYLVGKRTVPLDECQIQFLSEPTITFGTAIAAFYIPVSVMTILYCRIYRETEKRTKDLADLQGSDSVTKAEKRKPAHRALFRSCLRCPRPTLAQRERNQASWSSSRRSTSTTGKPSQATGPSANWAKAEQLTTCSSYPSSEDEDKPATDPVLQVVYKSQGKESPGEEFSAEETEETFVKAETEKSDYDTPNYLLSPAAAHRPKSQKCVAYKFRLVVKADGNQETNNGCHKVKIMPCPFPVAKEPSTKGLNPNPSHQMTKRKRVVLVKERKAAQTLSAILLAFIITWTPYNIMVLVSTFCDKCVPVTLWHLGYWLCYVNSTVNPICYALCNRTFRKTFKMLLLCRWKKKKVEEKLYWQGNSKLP", "sequence of UniProt P18031 (whole entry, looked up)": "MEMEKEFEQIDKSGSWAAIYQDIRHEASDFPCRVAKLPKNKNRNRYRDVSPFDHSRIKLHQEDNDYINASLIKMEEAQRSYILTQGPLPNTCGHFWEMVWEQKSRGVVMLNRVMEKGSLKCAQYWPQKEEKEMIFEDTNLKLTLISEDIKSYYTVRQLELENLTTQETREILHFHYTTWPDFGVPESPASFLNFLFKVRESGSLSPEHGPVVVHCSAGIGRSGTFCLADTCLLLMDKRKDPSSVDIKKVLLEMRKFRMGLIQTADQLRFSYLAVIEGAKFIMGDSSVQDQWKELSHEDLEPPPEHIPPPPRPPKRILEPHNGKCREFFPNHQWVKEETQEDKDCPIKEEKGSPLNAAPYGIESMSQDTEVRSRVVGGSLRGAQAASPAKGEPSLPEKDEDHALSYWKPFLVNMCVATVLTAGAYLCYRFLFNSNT", "sequence of UniProt Q6GPI1 (whole entry, unmodified, looked up)": "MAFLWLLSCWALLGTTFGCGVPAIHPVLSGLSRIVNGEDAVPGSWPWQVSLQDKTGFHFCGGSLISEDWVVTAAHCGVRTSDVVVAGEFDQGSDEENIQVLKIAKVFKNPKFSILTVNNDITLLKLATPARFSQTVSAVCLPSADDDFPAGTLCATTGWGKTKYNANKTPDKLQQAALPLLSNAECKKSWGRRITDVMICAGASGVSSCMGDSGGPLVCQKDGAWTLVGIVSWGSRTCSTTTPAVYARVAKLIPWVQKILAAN"}
{"Structure (SMILES)": "CCCC[C@H](NC(C)=O)C(=O)N[C@@H](CO)C(=O)N[C@H](C(=O)N1CCC[C@H]1C(=O)N[C@]1(C)CCCCCCC=CCCC[C@@](C)(C(=O)N[C@@H](Cc2ccccc2)C(=O)N[C@@H](CCCCN)C(=O)N[C@@H](CCCNC(=N)N)C(=O)N[C@@H](CC(C)C)C(=O)N[C@@H](CCC(N)=O)C(N)=O)NC(=O)[C@H](CCCNC(=N)N)NC(=O)[C@H](CCCC)NC(=O)[C@H](CC(C)C)NC(=O)[C@H](CCCNC(=N)N)NC(=O)[C@H](CCCNC(=N)N)NC(=O)[C@H](CCCNC(=N)N)NC1=O)[C@@H](C)O", "target": "UBA6 (Homo sapiens, UniProt A0AVT1)", "test": "thioester transfer to USE1, inhibitor", "how to read": "relative to: IC50 of UBE1 over target", "selectivity ratio": "5 fold"}
{"Structure (SMILES)": "CN1CCC=C(c2nsnc2OCCCN2CCN(CCCCC3CCN(CC(=O)N4c5ccccc5NC(=O)c5ccccc54)CC3)CC2)C1", "target": "CHRM5 (Homo sapiens, UniProt P08912)", "test": "radioligand competition binding", "system": "CHO cells", "how to read": "relative to: Ki M5 over Ki M2", "selectivity ratio": 430}
{"Structure (SMILES)": "COc1ccc(-c2nc(CSc3nc(N)c(C#N)c(-c4ccc5c(c4)OCO5)c3C#N)cs2)cc1", "target": "ADORA1", "test": "binding, radioligand competition", "system": "HEK293 membranes", "conditions": "with: [3H]DPCPX", "how to read": "relative to: A2A Ki over A1 Ki", "selectivity ratio": "~1000 fold"}
{"Structure (SMILES)": "Cc1cc2nc(NC(=O)C3CC3)sc2cc1Oc1ccc(F)c(NC(=O)Cc2cccc(C(F)(F)F)c2)c1", "target": "RIPK1", "test": "KINOMEscan binding Kd", "how to read": "relative to: RIPK1 over RIPK3, higher = more RIPK1-selective", "selectivity ratio": "> 36"}
{"Structure (SMILES)": "Nc1ncnc2c1ncn2[C@@H]1O[C@H](C(=O)NCCCF)[C@@H](O)[C@H]1O", "target": "ADORA1", "how to read": "relative to: Ki A2A over Ki A1", "selectivity ratio": "78 fold"}
{"Structure (SMILES)": "CSCC[C@@H]1NC(=O)[C@H](CCSC)NC(=O)[C@H](Cc2c[nH]c3ccccc23)NC(=O)[C@H]([C@@H](C)O)NC(=O)[C@@H]2CSSC[C@@H]3NC(=O)[C@H]([C@@H](C)O)NC(=O)[C@H](CC(N)=O)NC(=O)[C@H](CSSC[C@@H](C(=O)N[C@@H](CCCNC(=N)N)C(=O)N[C@@H](CCC(N)=O)C(=O)O)NC1=O)NC(=O)[C@H](CCCCN)NC(=O)[C@H](CC(=O)O)NC(=O)[C@H](CCCCN)NC(=O)[C@H](Cc1ccccc1)NC(=O)[C@H]([C@@H](C)O)NC(=O)[C@H]([C@@H](C)O)NC(=O)CNC(=O)[C@@H]1CCCN1C(=O)[C@H](CCC(=O)O)NC(=O)[C@@H](NC(=O)[C@@H](NC(=O)[C@@H](NC(=O)[C@@H](N)CCC(=O)O)C(C)C)[C@@H](C)O)CSSC[C@H](NC(=O)[C@H](CCCNC(=N)N)NC3=O)C(=O)NCC(=O)N[C@@H](CO)C(=O)N[C@@H](CC(=O)O)C(=O)NCC(=O)N[C@@H](CCCCN)C(=O)N[C@@H](CO)C(=O)N[C@@H](C)C(=O)NCC(=O)N2", "target": "Chymotrypsinogen B2 (Homo sapiens, UniProt Q6GPI1, Y164H)", "test": "binding, equilibrium binding", "how to read": "relative to: CTRB2 over CTRB1", "selectivity ratio": "3 fold"}
{"Structure (SMILES)": "O=C(Cc1cccc(C(F)(F)F)c1)Nc1cc(Oc2c(F)cc3nc(NC(=O)C4CC4)sc3c2F)ccc1F", "target": "RIPK1", "test": "KINOMEscan binding Kd", "how to read": "relative to: RIPK1 over RIPK3, higher = more RIPK1-selective", "selectivity ratio": "> 52"}
{"Structure (SMILES)": "CC1(C)C(/C=C/C2=C(Oc3ccc(CCC(=O)NCCC(O)(P(=O)([O-])O)P(=O)(O)O)cc3)C(=C/C=C3/N(CCC[N+](C)(C)C)c4ccc(S(=O)(=O)[O-])cc4C3(C)C)/CCC2)=[N+](CCC[N+](C)(C)C)c2ccc(S(=O)(=O)[O-])cc21 (stereo not shown)", "target": "hydroxyapatite", "test": "binding, NIR fluorescence imaging", "conditions": "5 µM, 30 min", "how to read": "relative to: hydroxyapatite over other calcium salts", "selectivity ratio": "8 fold"}
{"Structure (SMILES)": "N[C@@H](CCC(=O)N[C@@H](CS[Se]Cc1ccc(-c2cccc(C(O)c3ccc(Cl)c(Cl)c3)c2)cc1)C(=O)NCC(=O)O)C(=O)O (stereo partly shown)", "target": "PTPN1 (Homo sapiens, UniProt P18031)", "test": "enzyme activity", "conditions": "with: pNPP, GSH 1 mM", "how to read": "relative to: IC50 PTPN1 over STEP", "selectivity ratio": 27}
{"Structure (SMILES)": "O=C(Cc1cccc(C(F)(F)F)c1)Nc1cc(Oc2ccc3nc(NC(=O)C4CC4)sc3c2CO)ccc1F", "target": "RIPK1", "test": "KINOMEscan binding Kd", "how to read": "relative to: RIPK1 over RIPK3, higher = more RIPK1-selective", "selectivity ratio": 13}
{"note": "For quick reference, copied from above:"}
{"Structure (SMILES)": "CSCC[C@@H]1NC(=O)[C@H](CCSC)NC(=O)[C@H](Cc2c[nH]c3ccccc23)NC(=O)[C@H]([C@@H](C)O)NC(=O)[C@@H]2CSSC[C@@H]3NC(=O)[C@H]([C@@H](C)O)NC(=O)[C@H](CC(N)=O)NC(=O)[C@H](CSSC[C@@H](C(=O)N[C@@H](CCCNC(=N)N)C(=O)N[C@@H](CCC(N)=O)C(=O)O)NC1=O)NC(=O)[C@H](CCCCN)NC(=O)[C@H](CC(=O)O)NC(=O)[C@H](CCCCN)NC(=O)[C@H](Cc1ccccc1)NC(=O)[C@H]([C@@H](C)O)NC(=O)[C@H]([C@@H](C)O)NC(=O)CNC(=O)[C@@H]1CCCN1C(=O)[C@H](CCC(=O)O)NC(=O)[C@@H](NC(=O)[C@@H](NC(=O)[C@@H](NC(=O)[C@@H](N)CCC(=O)O)C(C)C)[C@@H](C)O)CSSC[C@H](NC(=O)[C@H](CCCNC(=N)N)NC3=O)C(=O)NCC(=O)N[C@@H](CO)C(=O)N[C@@H](CC(=O)O)C(=O)NCC(=O)N[C@@H](CCCCN)C(=O)N[C@@H](CO)C(=O)N[C@@H](C)C(=O)NCC(=O)N2", "target": "Chymotrypsinogen B2 (Homo sapiens, UniProt Q6GPI1, Y164H)", "test": "binding, equilibrium binding", "how to read": "relative to: CTRB2 over CTRB1", "selectivity ratio": "3 fold"}
